Measured values collected from several papers.
± marks the error that the study gave. Converted amounts (≈) assume the structure as drawn.

`Cc1cc(Nc2ccc(S(F)(F)(F)(F)F)cc2)n2nc(C(C)(F)F)nc2n1` has a terminal t1/2 of 90 to 115 h (malaria patients, plasma; oral, 250 to 800 mg, single dose).
Under “free drug permeability”, `COC(=O)N[C@H](C(=O)N[C@@H](Cc1ccccc1)[C@@H](O)CN(Cc1ccc(-c2ccccn2)cc1)NC(=O)[C@@H](NC(=O)OC)C(C)(C)C)C(C)(C)C` is recorded as 56 ± 2 ×10⁻⁶ cm/s (modified PAMPA Franz cell; phosphate buffer with HPMCAS; stock 5 mg/mL, 3 h, 37 °C, 193 nm system, 300 rpm, together with: 3% BSA receiver).
`CC(C)C[C@@H]1NC(=O)[C@H](C)N(C)C(=O)[C@H](Cc2ccccc2)NCc2ccc(n2C)CNC1=O` has a Papp of 0.501 ×10⁻⁶ cm/s (PAMPA; 100 µM, 17 h, pH 6.4).
For `CNCc1ccc(-c2[nH]c3cc(F)cc4c3c2CCNC4=O)cc1`, the Cmax was 219 ng/mL (human patients, plasma; oral, 240 mg twice daily, day 1, arithmetic mean).
With `C#C[C@]1(CO)O[C@@H](n2cnc3c(N)nc(F)nc32)C[C@@H]1O` the AUC(0-inf) was 48.3 µM·h (human, plasma; oral, 400 mg, single dose, fasted).
With `COc1ccc2cc3[n+](cc2c1OC)CCc1cc2c(cc1-3)OCO2` the measured concentration was 30.2 ± 1.86 ng/mL (rat plasma QC sample; 32 ng/mL nominal, 15 days, -80 °C, medium QC level storage stability).
`CN1CC[C@@H](NC(=O)Nc2ccc(C#N)cc2)C[C@@H]1c1nc2ccccc2[nH]1` has an unbound Cmax of 75.5 ± 19.1 ng/mL (human, normal hepatic function, plasma; oral, 100 mg, single dose, fasted).
Under “hepatocyte necrosis score”, `Cc1cnc(NC(=O)C2=C(O)c3ccccc3S(=O)(=O)N2C)s1` is recorded as 0 (Sprague-Dawley rat, male, liver; oral, 0.4 mg/kg, 6 h, single low dose; direction not given).
For `CS(=O)(=O)Nc1ccc(C(=O)O[C@@H](Cc2c(Cl)c[n+]([O-])cc2Cl)c2ccc(OC(F)F)c(OCC3CC3)c2)cc1OCC1CC1`, the Cmax was 6.92 ng/mL (human, plasma; inhaled, 2400 µg twice daily, day 14, multi-dose dry powder inhaler).
`CC(C)=CCC[C@](C)(O[C@@H]1O[C@H](CO)[C@@H](O)[C@H](O)[C@H]1O)[C@H]1CC[C@]2(C)[C@@H]1[C@H](O)C[C@@H]1[C@@]3(C)CC[C@H](O[C@@H]4O[C@H](CO)[C@@H](O)[C@H](O)[C@H]4O[C@@H]4O[C@H](CO)[C@@H](O)[C@H](O)[C@H]4O)C(C)(C)[C@@H]3CC[C@]12C`: “post-preparative stability accuracy” 93.5 ± 8% (rat, extracted tissue homogenate QC samples; 1.0 µg/mL, 24 h, 15 °C, autosampler).
`Cc1ccc(NC(=O)c2ccc(CN3CCN(C)CC3)cc2)cc1Nc1nccc(-c2cncc(-c3oncc3C)c2)n1` has a dose-normalised Cmax of 51.2 ng/mL/mg (Parkinson's disease patients, plasma; oral, 50.0 mg once daily, day 7, 7-day dosing, mean).
`COc1cc(OC)c(/C=C/S(=O)(=O)Cc2ccc(OC)c(NCC(=O)O)c2)c(OC)c1` gave a Vss/F of 1100 ± 424 L (cancer patients, phase I, plasma; oral, 140 mg twice daily, day 1 cycle 1).
With `CC(/C=C/C=C(\C)C(=O)O)=C\C=C\C=C(C)\C=C\C=C(/C)C(=O)O` the solubility was less than 0.5 µg/mL (shake-flask; simulated gastric fluid; 1 h, pH 1.2, 37 °C).
The tissue uptake of `CCCC[C@@H]1NC(=O)[C@@H](NC(=O)[C@H](CCC(=O)O)NC(=O)CNC(=O)CN2CCN(CC(=O)O)CCN(CC(=O)O)CCN(CC(=O)O)CC2)CCCCNC(=O)C[C@@H](C(N)=O)NC(=O)[C@H](C(C)C)NC(=O)[C@@H]2CCCN2C(=O)[C@H](CCCNC(=N)N)NC(=O)CNC(=O)[C@H](Cc2c[nH]c3ccccc23)NC(=O)[C@H](CCCNC(=N)N)NC(=O)[C@@H](Cc2ccccc2)NC(=O)[C@H](Cc2c[nH]cn2)NC(=O)[C@H](CCC(=O)O)NC1=O` [indium-111 labelled] is reported as 0.04 ± 0.03 %ID/g (normal C57 mice, pancreas; intravenous, 0.037 MBq, 4 h).
With `C[C@](N)(Cc1ccc(O)c(O)c1)C(=O)O` the solubility was 53 µg/mL (≈ 251 µM) (static gravimetric method; supercritical CO2, 587.2 kg/m3; 5 h, 323 K, pressure 12 MPa).
`CSc1cc(C)nc(SC)c1NC(=O)CN1CCN(CCSc2nc3ccccc3[nH]2)CC1` gave a concentration of 83 ng/g (mouse Crl:CD1 (ICR) female, cerebrum; intranasal repeated, 162 µg in 7 N HCl, 5 min, 7 days dosing).
`CC(C)C[C@H](NC(=O)[C@H](CC(C)C)NC(=O)[C@@H](Cc1c[nH]c2ccccc12)NC(=O)[C@@H](NC(=O)[C@@H](Cc1c[nH]c2ccccc12)NC(=O)[C@@H](N)CCCCN)[C@H](c1ccccc1)c1c[nH]c2ccccc12)C(N)=O` gave an HPLC retention of 58 %B (RP-HPLC Jupiter Proteo; acetonitrile/water TFA gradient).
`Cn1c(-c2ccc(C(N)=O)cc2F)nnc1C(C)(C)Oc1c(F)cc(Cl)cc1F` has a half-life mean of 13.4 h (young non-Japanese adults, plasma; oral, 50 mg single dose, day 1, high-dose multiple-dose study).
Under “minimum serum concentration”, `C[C@]12CC[C@@H]3c4ccc(O)cc4CC[C@H]3[C@@H]1C[C@@H](O)[C@@H]2O` is recorded as 0 ng/mL (GC-MS; breast cancer women on NSAI, serum; vaginal, 0.03 mg daily, 6 h, day 28).
`C[C@H](Cn1cnc2c(N)ncnc21)OCP(=O)(O)O` gave a clearance reduction of 12% (population PK model, item: tenofovir; human, HIV patients, plasma; oral, tenofovir alafenamide dosed, together with: P-gp inhibitors carvedilol or sertraline).
The Cmax of `CCCC[C@H](NC(C)=O)C(=O)N[C@H]1CCC(=O)NC[C@@H](C(=O)N[C@@H](Cc2c[nH]c3ccccc23)C(N)=O)NC(=O)[C@H](CCCNC(=N)N)NC(=O)[C@@H](Cc2ccccc2)NC(=O)[C@H](Cc2c[nH]cn2)NC1=O` is reported as 850 ng/mL (beagle dog, male, plasma; subcutaneous, 40.0 mg/kg daily, day 14).
`Cn1c(=O)c2c(ncn2Cc2nnc(SCC(=O)Nc3ccc(Cl)cc3)n2-c2ccccc2)n(C)c1=O` has a haemolysis of 7.2% (bovine erythrocytes; 1 mg/mL, 30 min, pH 7.4, 37 °C).
Under “volume of distribution”, `CNCc1ccc(-c2[nH]c3cc(F)cc4c3c2CCNC4=O)cc1` is recorded as 299 L (human cancer patients, plasma; intravenous, 8 mg/m2, day 1, together with: temozolomide 100).
`O=C(O)[C@H](c1ccccc1Cl)N1CCc2sccc2C1` — result for “deviation from nominal”: 10% (HPLC-MS/MS; feline EDTA plasma; 12 h, -20 °C, storage stability).
For `CS(=O)(=O)n1cc2c(n1)CN([C@H]1CO[C@H](c3cc(F)ccc3F)[C@@H](N)C1)C2`, “concentration at 168 h” read 11.9 nM (healthy male human, plasma; oral, 10 mg once weekly, day 15, fasted, geometric mean).
`Cc1[nH]c(=O)c(CNC(=O)c2ccc(Br)o2)c2c1CCCC2` has a kinetic solubility of 101 µg/mL (≈ 277 µM) (U-HPLC; 20% DMSO in water).
`CC(=O)O[C@@]12CO[C@@H]1C[C@H](O)[C@@]1(C)C(=O)[C@H](O)C3=C(C)[C@@H](OC(=O)[C@H](O)[C@@H](NC(=O)OC(C)(C)C)c4ccccc4)C[C@@](O)([C@@H](OC(=O)c4ccccc4)[C@H]21)C3(C)C` has an AUC(0-t) of 2590 ng·h/mL (male Sprague-Dawley rat, plasma; intravenous, 10 mg/kg).
`CS(=O)(=O)n1cc2c(n1)CN([C@@H]1C[C@H](N)[C@@H](c3cc(F)ccc3F)O[C@@H]1C(F)(F)F)C2` has a Ctrough of 14.9 ± 10.7 ng/mL (human, plasma; oral, 25 mg, 1008 h after first dose, multiple dose).
For `OC[C@H]1O[C@@H](c2ccc(F)c(Cc3cc4ccccc4s3)c2)[C@H](O)[C@@H](O)[C@@H]1O`, the tissue/plasma ratio was 1420 ± 405 (Wistar rat, male, kidney; oral, dose not given, 1 h; reference: kidney over plasma concentration).
For `COc1cc2nccc(Oc3ccc(NC(=O)C4(C(=O)Nc5ccc(F)cc5)CC4)cc3)c2cc1OC`, “right ventricular systolic pressure” read 36.8 ± 2.3 mmHg (male Sprague-Dawley rat, hypoxic pulmonary hypertension; subcutaneous, 20 mg/kg, 14 days post-hypoxia, 3 weeks hypoxia).
`CC[C@H](C)[C@@H]1NC(=O)[C@H](Cc2ccc(O)cc2)NC(=O)[C@@H](N)CSSC[C@@H](C(=O)N2CCC[C@H]2C(=O)N[C@@H](CC(C)C)C(=O)NCC(N)=O)NC(=O)[C@H](CC(N)=O)NC(=O)[C@H](CCC(N)=O)NC1=O` — result for “AUC above baseline”: 89.1 ± 51.3 pg·30 min/sample (microdialysis, radioimmunoassay; knock-out male mice lacking compound, amygdala extracellular fluid; intraperitoneal, 12 µg total, incremental area over baseline).
Under “minimum trough plasma concentration”, `CCN(CC)CCNC(=O)c1c(C)[nH]c(/C=C2\C(=O)Nc3ccc(F)cc32)c1C` is recorded as 8.9 ng/mL (human, plasma; oral, 15 mg/m2, day 21).
`COc1cc(/C=C/C(=O)CC(=O)/C=C/c2ccc(O)c(OC)c2)ccc1O` — result for “brain uptake ratio”: 3.9 (I-125 label; C57BL/6J mouse, cerebral cortex; intranasal vs intraperitoneal, 10 µg/mouse IN, 100 µg/mouse IP, 12 h; reference: intranasal over intraperitoneal).
`CC(C)=CCC[C@](C)(O[C@@H]1O[C@H](CO[C@@H]2O[C@H](CO)[C@@H](O)[C@H](O)[C@H]2O)[C@@H](O)[C@H](O)[C@H]1O)[C@H]1CC[C@]2(C)[C@@H]1[C@H](O)C[C@@H]1[C@@]3(C)CC[C@H](O[C@@H]4O[C@H](CO)[C@@H](O)[C@H](O)[C@H]4O[C@@H]4O[C@H](CO)[C@@H](O)[C@H](O)[C@H]4O)C(C)(C)[C@@H]3CC[C@]12C`: “post-preparative stability accuracy” 94.4 ± 4% (rat, extracted plasma QC samples; 2.0 µg/mL, 24 h, 15 °C, autosampler).
`CC(C)C[C@H](NC(=O)[C@H](CCCNC(=N)N)NC(=O)[C@H](CC(N)=O)NC(=O)[C@H](CC(=O)O)NC(=O)[C@H](CCCNC(=N)N)NC(=O)CNC(=O)CNC(=O)CNC(=S)Nc1ccc(C[C@H]2CN(CC(=O)O)CCN(CC(=O)O)CCN2CC(=O)O)cc1)C(=O)N[C@@H](CC(N)=O)C(=O)N[C@H](C(=O)NCC(=O)NCC(=O)N[C@H](C(=O)N[C@@H](Cc1ccc(O)cc1)C(=O)N[C@@H](Cc1ccccc1)C(=O)N[C@@H](CC(C)C)C(=O)N[C@H](C(=O)N[C@H](C(=O)N[C@@H](CCCNC(=N)N)C(=O)N[C@@H](CCC(N)=O)C(=O)O)[C@@H](C)O)[C@@H](C)O)[C@@H](C)O)C(C)C` [fluorine-18 labelled]: “HPLC retention time” 13.2 min (reverse-phase HPLC).

Repeated from above:
For `CNCc1ccc(-c2[nH]c3cc(F)cc4c3c2CCNC4=O)cc1`, the Cmax was 219 ng/mL (human patients, plasma; oral, 240 mg twice daily, day 1, arithmetic mean).
Under “volume of distribution”, `CNCc1ccc(-c2[nH]c3cc(F)cc4c3c2CCNC4=O)cc1` is recorded as 299 L (human cancer patients, plasma; intravenous, 8 mg/m2, day 1, together with: temozolomide 100).
